Published values collected from several papers.
Each numbered part is a random draw from the data of one study; scales do not carry over between parts. Substitutions count along the parent as printed.

Series 1 — method: DHFR PCA, deep sequencing; medium: yeast; together with: (+)-ABA 58 µM; baseline: wild-type fitted maximum; reading: higher = stronger binding
Target: ABI1, truncated, D143A, DHFR fusion (Arabidopsis thaliana)
Notes: methotrexate growth selection, single substitutions
Parent: PYL1, truncated, DHFR fusion (Arabidopsis thaliana); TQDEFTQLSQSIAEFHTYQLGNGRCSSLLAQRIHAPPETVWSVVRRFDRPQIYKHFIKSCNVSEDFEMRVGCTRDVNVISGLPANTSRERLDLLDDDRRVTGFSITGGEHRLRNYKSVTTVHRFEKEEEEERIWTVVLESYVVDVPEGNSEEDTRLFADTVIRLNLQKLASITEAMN
| Change | relative binding score [%] |
| --- | --- |
| D159C | 31.4 |
| P37Q | 50 |
| P36Y | 66.8 |
| I33Q | -7.38 |
| G71K | 14.4 |
| G23E | 73.2 |
| P50K | -11.4 |
| E4G | 75.5 |
| F124R | 58.5 |
| A170H | 25.4 |
| Q51P | -35 |
| L94V | 54.3 |
| T106M | 92.7 |
| H55L | 88.5 |
| T1L | 87.6 |
| D75Y | 77.5 |
| S26H | 91 |
| L166I | 26.1 |

Series 2 — method: competition protein-binding microarray; form: double-stranded DNA, one strand shown; medium: in vitro; concentration: 2 µM; together with: Pho4 competitor, 0.05 µM; reading: higher = stronger binding; all sequences stand within: … GTCTTGATTCGCTTGACGCTGCTG
Target: Centromere-binding protein 1, full length, His-tagged (CBF1, Saccharomyces cerevisiae, UniProt P17106, residues 1-351)
Chain of UniProt P17106 (whole entry, looked up): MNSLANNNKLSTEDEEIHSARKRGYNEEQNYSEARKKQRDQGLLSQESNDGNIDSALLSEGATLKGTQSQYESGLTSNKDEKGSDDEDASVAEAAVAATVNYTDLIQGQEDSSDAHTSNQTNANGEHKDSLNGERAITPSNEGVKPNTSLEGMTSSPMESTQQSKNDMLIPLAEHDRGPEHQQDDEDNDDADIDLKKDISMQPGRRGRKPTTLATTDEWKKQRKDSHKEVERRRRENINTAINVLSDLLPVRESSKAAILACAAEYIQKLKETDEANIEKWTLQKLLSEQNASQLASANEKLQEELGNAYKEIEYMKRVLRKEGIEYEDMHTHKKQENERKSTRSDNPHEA
Notes: whole 60-bp probe, lowest competitor level
| Sequence | fluorescence intensity [a.u.] |
| --- | --- |
| ACTAATGCAGGCAGAAGGAGATCCATACCTTCAAAT | 66.8 |
| TTCTGCCCTTAATCGCACGTGCCAGAAGACCTGTAC | 1770 |
| AAAGCGGTAATTTGGTTCGTGGGTGCAGATATCTAT | 77 |
| CTGTTTCTTCTCCATACTTTCAAATATTCAAATTGA | 76.6 |
| AAAAAATGTGAATTGCACATGCCCAGCGCGCTCGCA | 114 |
| GACGTACGCGCCTTCCACGTGTAACTCTTGTCTCTC | 452 |
| TGCGCAACAACTTGTGGGGTGGGTGTATGTCTAGAA | 70.5 |
| GTAAAACTTTATTAGCTCGTGCTTTCGCGGCTCAGA | 111 |
| ACCAGACGGAGTTTGCACGGGAGTGTTGTTGGGCGC | 87.5 |
| TGCGCAACAACTTGTAACGTGGGTGTATGTCTAGAA | 84.9 |
| CATACCCAACCTTGGCAAGTGGGTGAAGATATTTGT | 64.3 |
| GGGATTCCTCTCTGGCGTGTGATGTCTGTATCTGTT | 79.5 |
| AGATCAAAGTCCCATCACGGGAAGCGGACAACAATA | 106 |
| CGGGGTTAAGTTTGGGCAGTGGGTGGCTTGCAGCAG | 77.1 |
| AACGGCGTCCGCAGAACCGTGACGGAATCTGCGGTT | 70.4 |
| CAGATTAAGCCCCGCCACGTGGTGGCCAAGCCAGCT | 608 |
| TGCGCAACAACTTGGGGGGTGGGTGTATGTCTAGAA | 118 |
| TAGCTAAAAACGAGTCACGTGATGGATATTCGAAAG | 27300 |
| CCGAGTATGTATCCACACGTTGGTACAGGGCGCCAG | 60.9 |

Series 3 — method: universal PBM; form: double-stranded DNA, one strand shown; medium: in vitro; concentration: 600 nM; reading: higher = stronger binding
Target: Sal-like protein 4, full length isoform A (SALL4, Homo sapiens, UniProt Q9UJQ4, residues 1-1053)
Chain of UniProt Q9UJQ4 (whole entry, looked up): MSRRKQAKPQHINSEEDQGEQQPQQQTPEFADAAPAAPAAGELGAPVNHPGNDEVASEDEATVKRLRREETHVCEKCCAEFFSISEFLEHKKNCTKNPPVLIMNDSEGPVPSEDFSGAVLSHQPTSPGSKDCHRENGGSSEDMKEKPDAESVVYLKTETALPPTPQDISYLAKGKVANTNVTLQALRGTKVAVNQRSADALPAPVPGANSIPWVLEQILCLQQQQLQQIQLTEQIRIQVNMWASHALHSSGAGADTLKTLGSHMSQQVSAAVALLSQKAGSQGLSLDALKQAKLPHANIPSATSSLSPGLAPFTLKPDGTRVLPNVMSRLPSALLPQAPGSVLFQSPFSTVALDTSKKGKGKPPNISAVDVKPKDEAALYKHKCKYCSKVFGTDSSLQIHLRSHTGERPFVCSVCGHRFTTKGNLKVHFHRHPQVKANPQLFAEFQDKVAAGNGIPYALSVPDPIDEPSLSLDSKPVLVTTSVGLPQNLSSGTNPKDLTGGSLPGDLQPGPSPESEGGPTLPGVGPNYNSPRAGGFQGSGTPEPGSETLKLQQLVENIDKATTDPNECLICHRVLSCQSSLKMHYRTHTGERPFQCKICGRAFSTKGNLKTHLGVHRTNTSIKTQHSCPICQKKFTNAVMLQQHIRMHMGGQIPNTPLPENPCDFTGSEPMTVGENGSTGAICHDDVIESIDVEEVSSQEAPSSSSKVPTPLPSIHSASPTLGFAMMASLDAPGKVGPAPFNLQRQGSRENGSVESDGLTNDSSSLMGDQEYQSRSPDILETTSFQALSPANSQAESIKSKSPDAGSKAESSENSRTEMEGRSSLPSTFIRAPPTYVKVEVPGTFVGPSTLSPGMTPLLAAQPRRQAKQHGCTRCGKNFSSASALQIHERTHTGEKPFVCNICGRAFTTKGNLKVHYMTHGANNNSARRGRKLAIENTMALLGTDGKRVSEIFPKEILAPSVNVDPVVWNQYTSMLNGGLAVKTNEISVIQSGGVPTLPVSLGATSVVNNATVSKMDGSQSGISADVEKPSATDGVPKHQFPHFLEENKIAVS
Notes: 8-mer, flanks averaged, mean of replicates
| Sequence | E-score |
| --- | --- |
| ACCGGTAT | -0.237 |
| CCCTCAAG | -0.0656 |
| AATTAAAA | 0.311 |
| GGCTTTAC | -0.103 |
| GGGGGCTA | -0.332 |
| AGGGTATC | -0.0936 |
| AGTACGAC | 0.00367 |
| GGCCCGTA | -0.279 |
| CTGGAAGA | -0.0999 |
| TGTGGGAA | -0.0171 |
| CACTTCAA | 0.0957 |
| ACCTAACC | -0.0982 |
| CGGGCGGA | -0.318 |
| ATAGTTAC | 0.264 |
| GTAACAAA | 0.228 |
| ACGTCAAT | 0.0186 |
| CTGCTCCC | -0.291 |

Series 4 — method: aptamer microarray, sandwich; form: DNA with 2'F-ANA; medium: in vitro; concentration: 200 nM; together with: Cy3 exosite-II aptamer, 400 nM; reading: higher = stronger binding; sequence: GGTTGGTGTGGTTGG
Target: Prothrombin, mature alpha-thrombin (F2, Homo sapiens, UniProt P00734)
Notes: whole 15-mer aptamer, many near background
| Modification | mean fluorescence intensity |
| --- | --- |
| 2'F-ANA at 2 3 7 8 11 12 15 | 1090 a.u. |
| 2'F-ANA at 2 3 4 6 8 10 11 13 15 | 162 a.u. |
| 2'F-ANA at 1 3 4 5 7 9 11 13 15 | 51.9 a.u. |
| 2'F-ANA at 1 3 4 5 7 9 10 11 13 14 15 | 83.7 a.u. |
| 2'F-ANA at 3 4 5 6 7 9 10 11 12 13 15 | 56.3 a.u. |
| 2'F-ANA at 1 2 5 9 10 12 14 15 | 50.8 a.u. |
| 2'F-ANA at 2 5 8 12 13 14 15 | 65.8 a.u. |
| 2'F-ANA at 3 5 7 9 13 15 | 81.4 a.u. |
| 2'F-ANA at 1 2 3 4 6 12 13 | 233 a.u. |
| 2'F-ANA at 2 4 7 10 13 | 83.6 a.u. |
| 2'F-ANA at 3 4 6 7 8 9 12 | 998 a.u. |
| 2'F-ANA at 1 2 10 | 52.1 a.u. |
| 2'F-ANA at 3 7 9 12 14 15 | 673 a.u. |
| 2'F-ANA at 4 5 10 11 12 14 15 | 117 a.u. |
| 2'F-ANA at 1 2 8 | 226 a.u. |
| 2'F-ANA at 1 2 4 5 6 7 8 15 | 75.5 a.u. |
| 2'F-ANA at 2 5 6 7 10 12 13 14 15 | 45.9 a.u. |
| 2'F-ANA at 2 7 8 10 14 15 | 86.2 a.u. |
| 2'F-ANA at 2 3 5 7 9 10 12 14 | 49.4 a.u. |
| 2'F-ANA at 2 4 5 7 10 11 12 | 55.5 a.u. |
| 2'F-ANA at 1 3 5 7 9 11 13 | 56.1 a.u. |

Series 5 — target: ATF1, bZIP domain (human); method: DHFR protein complementation; medium: yeast; baseline: wild-type JUN-FOS pair; reading: higher = stronger binding
Notes: single substitutions, most at no-binding floor
Parent: JUN, bZIP domain (human); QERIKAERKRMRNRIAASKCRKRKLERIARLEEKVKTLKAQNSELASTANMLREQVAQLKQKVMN; partner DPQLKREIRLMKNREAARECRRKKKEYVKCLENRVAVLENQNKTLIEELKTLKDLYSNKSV
| Change | binding fitness [natural log] |
| --- | --- |
| L45W | -1.55 |
| V35K | -1.45 |
| L31K | -1.55 |
| M51G | -1.51 |
| E54G | -1.5 |
| E33G | -1.49 |
| I28S | -1.52 |
| Q41A | -1.33 |
| L31Q | -1.48 |
| L52V | -1.54 |
| A57V | -1.34 |
| I28D | -1.45 |
| E54P | -1.54 |
| A57P | -1.5 |
| K39P | -1.57 |
| A49G | -1.54 |

Series 6 — target: CCNB2, cyclin fold, Cln2 fusion (human); method: yeast growth competition, sequencing; medium: yeast; notes: weak parent motif; baseline: not given; reading: higher = stronger binding
Parent: EXO1 docking peptide (human); KPECGRVQRAIFQ; partner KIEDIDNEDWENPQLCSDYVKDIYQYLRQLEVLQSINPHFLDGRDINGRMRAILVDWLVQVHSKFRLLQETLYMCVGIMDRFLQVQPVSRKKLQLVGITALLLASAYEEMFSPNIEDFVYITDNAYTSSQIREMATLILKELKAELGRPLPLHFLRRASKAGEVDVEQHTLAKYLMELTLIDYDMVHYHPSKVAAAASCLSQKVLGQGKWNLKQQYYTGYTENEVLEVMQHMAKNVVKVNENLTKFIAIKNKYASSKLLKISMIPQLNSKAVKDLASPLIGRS
| Change | normalised enrichment score |
| --- | --- |
| R6A | 0.222 |
| R9A | 0.127 |
| V7A | 0.271 |
| K1A | -0.321 |
| C4A | -0.0766 |
| P2A | 0.286 |

Further values, each from its own experiment
| Molecule | target | test | system | setting | how to read | quantity | result |
| --- | --- | --- | --- | --- | --- | --- | --- |
| PhoQ, residues 284 288 289 292 302 303 SCKMEA | PhoP, residues 12 14 15 18 19 SQCLL (Escherichia coli, UniProt P23836) | Sort-seq, item: YFP reporter | E. coli | PhoQ-PhoP variant library, together with: 10 µM Mg2+ | baseline: high Mg2+ state, higher = stronger signaling | fold induction | 12.2 |

Excerpt of the above (series 1):
| Change | relative binding score [%] |
| --- | --- |
| D75Y | 77.5 |
| I33Q | -7.38 |
| P37Q | 50 |
| L94V | 54.3 |
| Q51P | -35 |
| G23E | 73.2 |
| T1L | 87.6 |
| F124R | 58.5 |
| P36Y | 66.8 |
| P50K | -11.4 |
| E4G | 75.5 |
| A170H | 25.4 |
| H55L | 88.5 |
| G71K | 14.4 |
| T106M | 92.7 |
| D159C | 31.4 |
